Experimental data pooled from the literature.
Each numbered part is a random draw from the data of one study; scales do not carry over between parts.

Study 1 — method: RNAcompete; molecule type: RNA; matrix: in vitro; tested at: 20 nM; notes: 7-mer, probes averaged, single round; reference: mean of 7-mers; direction: higher = stronger binding
Target: PABPC1L2, full length, GST fusion (mouse, UniProt A0ABA7IW68)
Construct (chain): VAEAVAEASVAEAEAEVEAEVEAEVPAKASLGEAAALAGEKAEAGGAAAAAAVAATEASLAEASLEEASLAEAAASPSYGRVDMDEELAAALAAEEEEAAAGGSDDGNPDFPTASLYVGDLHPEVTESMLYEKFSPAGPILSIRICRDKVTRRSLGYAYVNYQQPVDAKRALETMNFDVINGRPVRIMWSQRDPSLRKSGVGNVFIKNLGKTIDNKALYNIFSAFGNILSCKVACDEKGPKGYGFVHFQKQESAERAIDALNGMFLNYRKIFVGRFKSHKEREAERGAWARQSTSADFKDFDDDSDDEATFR
For `CUGAGCG`, the 7-mer Z-score was -0.11.
The 7-mer Z-score of `UCGAGCC` is reported as -0.287.
`UACCCAC` gave a 7-mer Z-score of -0.369.
For `AUCAAAG`, the 7-mer Z-score was 0.28.
`CGAUUAC` gave a 7-mer Z-score of -0.122.
With `GGGCCCC` the 7-mer Z-score was -0.443.
`UCCAUAG` gave a 7-mer Z-score of -0.258.
With `AUGCCUU` the 7-mer Z-score was -0.202.
For `CACUUUU`, the 7-mer Z-score was -0.108.
`ACCAUAG` gave a 7-mer Z-score of -0.0699.
With `CGUAUGU` the 7-mer Z-score was -0.306.
`GGAGGAC` gave a 7-mer Z-score of 0.485.
With `CCUGCUU` the 7-mer Z-score was -0.414.
For `CCCAUUA`, the 7-mer Z-score was -0.244.
The 7-mer Z-score of `AGACACA` is reported as -0.0174.
For `AACCGUC`, the 7-mer Z-score was -0.219.
For `AAUUGCU`, the 7-mer Z-score was 0.0569.
For `GGGGAUU`, the 7-mer Z-score was 0.289.
For `GGGUGUC`, the 7-mer Z-score was -0.0101.

Study 2 — method: protein-binding microarray; molecule type: double-stranded DNA, one strand shown; matrix: in vitro; tested at: 940 nM top; notes: 60-bp whole probe; added: salmon DNA 0.4 mg/ml; reference: random background probes; direction: higher = stronger binding; all sequences stand within: GCCTAGCAC … GTCTTGATTCGCTTGACGCTGCTG
Target: Interferon regulatory factor 5, full length, phosphomimetic (IRF5, Homo sapiens, UniProt Q13568-2, residues 1-514, S451D/S453D/S456D/S462D)
`ACGTAGAAGGAAGAAGCACGGTGCTAG` — result for “fitted relative affinity”: -0.541 z-score.
Under “fitted relative affinity”, `GACGATATCGGGTTTCGACACGTGCTA` is recorded as 2.57 z-score.
`TTAGATGTCGGGTTTCGATTAGTGCTA`: “fitted relative affinity” 4.85 z-score.
For `TTAGATATCGGGTATCGATTAGTGCTA`, “fitted relative affinity” read 2.91 z-score.
For `GACGGGATCCTTATCCTGACGTGCTAG`, “fitted relative affinity” read -0.456 z-score.
Under “fitted relative affinity”, `TCAAACATCATTTTTCCACTGTGCTAG` is recorded as 0.533 z-score.
`CACGATATCGGGACTGGAGACGTGCTA` — result for “fitted relative affinity”: 0.156 z-score.
`TTAGGTCTCGGACGGGGTTAGTGCTAG` — result for “fitted relative affinity”: 1.41 z-score.
For `CTTTAACTCATTTTCGTTTTGTGCTAG`, “fitted relative affinity” read 1.55 z-score.
Under “fitted relative affinity”, `TTAGAACTGGGGTTTCGGTTAGTGCTA` is recorded as 5.66 z-score.
Under “fitted relative affinity”, `TCACCCCTCTAGGTTCTCACTGTGCTA` is recorded as 0.328 z-score.
Under “fitted relative affinity”, `TTAGGTATCCTTATCCTTAAGTGCTAG` is recorded as 0.429 z-score.
`GAGGGTATCGACACTGGGGACGTGCTA`: “fitted relative affinity” 2.25 z-score.
For `TCACTTTTAATTTTTAAACTGTGCTAG`, “fitted relative affinity” read 0.436 z-score.
For `TTAGGTATCGGGTTGCGGTTAGTGCTA`, “fitted relative affinity” read 6.42 z-score.
Under “fitted relative affinity”, `TTAGGTTTCGGTTTCGGTGAGTGCTAG` is recorded as 15.9 z-score.
`TTAGATCTCAGTATCGACTAGTGCTAG`: “fitted relative affinity” 2.45 z-score.
`TCAGGAAACCGGAAAGGCACTGTGCTA` — result for “fitted relative affinity”: -0.418 z-score.
`CACTCTTGCTTTTTAGATCGGTGCTAG`: “fitted relative affinity” 1.03 z-score.

Study 3 — method: RNA Bind-n-Seq; molecule type: RNA; matrix: in vitro; tested at: not given; notes: RNA with constant flanks, ends assumed; reference: input RNA pool; direction: higher = stronger binding
Target: RING finger protein unkempt homolog, zinc fingers 1-6, GST-SBP tag (UNK, Homo sapiens, UniProt Q9C0B0, residues 30-357)
UniProt Q9C0B0, sequence (30-357, looked up): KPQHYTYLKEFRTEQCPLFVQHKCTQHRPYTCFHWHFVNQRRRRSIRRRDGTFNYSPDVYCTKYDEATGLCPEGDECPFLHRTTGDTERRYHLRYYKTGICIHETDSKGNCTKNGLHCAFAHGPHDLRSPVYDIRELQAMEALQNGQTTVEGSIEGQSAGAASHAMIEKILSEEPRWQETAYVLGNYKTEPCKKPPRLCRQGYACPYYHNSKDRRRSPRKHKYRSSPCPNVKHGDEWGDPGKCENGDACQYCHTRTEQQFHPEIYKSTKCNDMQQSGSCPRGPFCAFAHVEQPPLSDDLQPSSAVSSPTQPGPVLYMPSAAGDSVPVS
All sequences stand within: GGGAGUUCUACAGUCCGACGAUC … CAACAGAGGAUUGAGCAUCA
For `UGUGGCAGUGCCCCGUGUUUGCUGUGCCGAUGCUGCCCCAGUGGGAACAACUCCACUGUGACCCGAUUGAUCUACGCACUUUUCUUGCUCGUCGGAGUAUGUGUAGCUUGUGUAAUGUUA`, the bound/input enrichment was 0.272 ratio.
`CAGUUGAAGACAGAGAAGGAUGAAAAGGAACUUUAUAAGGUACAUUUGAAGAAUACAGAAACCGAAAAUACCAAGCUUAUGUCAGAGGUCCAGACUUUAAAAAAUUUAGAUGGGAACAAA` has a bound/input enrichment of 0.78 ratio.
The bound/input enrichment of `ACUAACAGGCCAUUUAUUUCUCAGAAAAUCCAUUUUCCUGAUUUUUCUACCAGAGACAUACACCGGAAUUAUGUUGAUUGUGUGCGAUGGUUAGGCGAUUUGAUACUUUCUAAGAGUGGC` is reported as 0.218 ratio.
The bound/input enrichment of `AAACUAAAUGGAACCAUGUGCUAAUUUUUCACAAUUAUUGACCUGUAUUGAUUGCCACUGCCGUUUGGUAUUUCCCUUUACUUUGGUGGCCUGCUUCCCUCAUGCCCUGGAAUACAACUC` is reported as 0.261 ratio.
`GCUCUGGAUAUAGAAAUCGCUGCGUACAGAAAACUCCUGGAGGGUGAAGAGACUAGAUUCCGCACAUUUGCAGGAAGCAUCACUGGGCCACUGUAUACACACCGACCCCCAAUCACAAUA` gave a bound/input enrichment of 0.295 ratio.
For `AUAACAAUGCUGGUUCCUGGAGGAGAAGGACCUGAAGUGUGAAUGAGUUUCCUUGACUUACACCCGAUUUUGUUUUGGCUUAUAAUGACAAGAAAAUGGAAUUUUUUUUCCCACUUUCUA`, the bound/input enrichment was 0.257 ratio.
`GAGAUGAGGGCAAGAGCGAUUAAAGCCCUAAUGAAAGCUGGUGAUAUAAAAAAGCCAGCCCCGGUAUUUAACUUGAUUUUGAAUUUUAGGUAUGUUUGAACAAAGCCACAUCAUUUAAUU` gave a bound/input enrichment of 0.375 ratio.
With `AGUCUUAAAAGACCCUGGGAAGAUGAUCCUCCAAAUGUACAUAUUAUUGGAAAUCUGCCUUUCCGUGUUUCAACUCCACUGAUUAUCAAGUGGCUUGAAAAUAUUUCCUGUAGAGAUGGA` the bound/input enrichment was 0.194 ratio.

Study 4 — method: protein binding microarray; molecule type: double-stranded DNA, one strand shown; matrix: in vitro; tested at: not given; reference: not given; direction: higher = stronger binding
Target: Histone acetyltransferase KAT6A, winged helix 1, GST fusion (KAT6A, Homo sapiens, UniProt Q92794, residues 1-85)
Notes: 8-mer, flanks averaged, mean of 2 arrays, mostly near background
Target sequence (chain): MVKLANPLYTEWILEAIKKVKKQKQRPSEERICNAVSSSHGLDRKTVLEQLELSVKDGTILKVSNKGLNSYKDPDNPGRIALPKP
For `ATATTATG`, the E-score was -0.076.
`CGAACATA` gave an E-score of -0.103.
`AGAAAACC` has an E-score of -0.0698.
`AAACTGGA` has an E-score of -0.234.
With `ACCACGGT` the E-score was -0.0113.
`ATTTTTTG` gave an E-score of -0.0927.
`ATATGCAT` has an E-score of -0.0686.
For `CTACGCCA`, the E-score was 0.0175.
`ATGCTTTC` gave an E-score of -0.0753.
For `AGCGGCAG`, the E-score was 0.368.
With `AGGTGTGG` the E-score was -0.113.
For `GACGCAAC`, the E-score was 0.223.
With `AGGCCCAG` the E-score was -0.217.
The E-score of `CAAACTTC` is reported as -0.0859.
The E-score of `CGGCCATC` is reported as 0.209.
`CGTCGTCC` gave an E-score of 0.111.
With `ACACTTCT` the E-score was -0.174.
`GTCACTAA` gave an E-score of -0.225.
With `ATGTAAAG` the E-score was -0.106.
The E-score of `ATTTAAAG` is reported as -0.0551.
`GCCAGTAA` has an E-score of -0.0797.
`GCGCGAGA` gave an E-score of 0.268.
`GGCTTACA` gave an E-score of -0.114.
`CCACCCGA` gave an E-score of 0.0931.
The E-score of `CTGAAAGC` is reported as -0.0319.

Study 5 — method: RNA Bind-n-Seq; molecule type: RNA; matrix: in vitro; tested at: 200 nM; notes: whole 134-nt RNA, ends assumed; added: 150 mM KCl; reference: input library; direction: higher = stronger binding
Target: Fragile X messenger ribonucleoprotein 1, C-terminal low-complexity region (Fmr1, Mus musculus, UniProt P35922)
All sequences stand within: GGGAGUUCUACAGUCCGACGAUC … UGGAAUUCUCGGGUGUCAAGG
`UCAAGUCCUGUGCUACACAUCGUAUGUACCGAAUCGGGGCCGGGCCGGGGCCGGAAAGUAUUAUGUUACGCCGUUCGGAUCUGCACUUCC` gave a log2 enrichment of -0.112.
`CAAGUCCUGUGCUACACAUCGUAUGUACCGAAUCGGGGAAAGGGAAAGGGGAAAGGAAAGUAUUAUGUUACGCCGUUCGGAUCUGCACUU` has a log2 enrichment of 0.069.
The log2 enrichment of `UCCUCAAGUCCUGUGCUACACAUCGUAUGUACCGAAUCGGCGGGCGGGCGGGAAAGUAUUAUGUUACGCCGUUCGGAUCUGCACUUCCAG` is reported as 1.1.
`AAGUCCUGUGCUACACAUCGUAUGUACCGAAUCGGGUUUGGGGUUUGGGGUUUGGGGAAAGUAUUAUGUUACGCCGUUCGGAUCUGCACU` gave a log2 enrichment of 0.61.
`CACAGACAACACGCACCCACAUAGACACAGAGGGAAGGGGUUGGGAUGGGGACAGGGUGCACAGCAGGGCGGGGUAGGACCCCAGCCCCU` gave a log2 enrichment of 1.27.
The log2 enrichment of `CAAGUCCUGUGCUACACAUCGUAUGUACCGAAUCGGUUUUUUUGGAGGUUUUUGGAAAGUAUUAUGUUACGCCGUUCGGAUCUGCACUUC` is reported as -0.489.
The log2 enrichment of `CUUAUGCCUUCCCCACUGGUAUUGAGGGUUUUGAUAAUAAAUUGGUAGGAAAAAAAAGUACCUCCUAGAAGGAAGCCUUCCCCACCAUUU` is reported as -0.169.
For `CACAGACAACACGCACCCACACAGACACAGAGGGAAGGGGUUGGGAUGGGGACAGGGUGCACAGCAGGGCGUGGUAGGACCCCAGCCCCU`, the log2 enrichment was 1.2.
With `GUCCUGUGCUACACAUCGUAUGUACCGAAUCGGGCCCCCGGGCCCCCGGCCCCCGGGGAAAGUAUUAUGUUACGCCGUUCGGAUCUGCAC` the log2 enrichment was -0.422.

Repeated from above (study 3):
For `UGUGGCAGUGCCCCGUGUUUGCUGUGCCGAUGCUGCCCCAGUGGGAACAACUCCACUGUGACCCGAUUGAUCUACGCACUUUUCUUGCUCGUCGGAGUAUGUGUAGCUUGUGUAAUGUUA`, the bound/input enrichment was 0.272 ratio.
For `AUAACAAUGCUGGUUCCUGGAGGAGAAGGACCUGAAGUGUGAAUGAGUUUCCUUGACUUACACCCGAUUUUGUUUUGGCUUAUAAUGACAAGAAAAUGGAAUUUUUUUUCCCACUUUCUA`, the bound/input enrichment was 0.257 ratio.
`GCUCUGGAUAUAGAAAUCGCUGCGUACAGAAAACUCCUGGAGGGUGAAGAGACUAGAUUCCGCACAUUUGCAGGAAGCAUCACUGGGCCACUGUAUACACACCGACCCCCAAUCACAAUA` gave a bound/input enrichment of 0.295 ratio.
With `AGUCUUAAAAGACCCUGGGAAGAUGAUCCUCCAAAUGUACAUAUUAUUGGAAAUCUGCCUUUCCGUGUUUCAACUCCACUGAUUAUCAAGUGGCUUGAAAAUAUUUCCUGUAGAGAUGGA` the bound/input enrichment was 0.194 ratio.
The bound/input enrichment of `AAACUAAAUGGAACCAUGUGCUAAUUUUUCACAAUUAUUGACCUGUAUUGAUUGCCACUGCCGUUUGGUAUUUCCCUUUACUUUGGUGGCCUGCUUCCCUCAUGCCCUGGAAUACAACUC` is reported as 0.261 ratio.
The bound/input enrichment of `ACUAACAGGCCAUUUAUUUCUCAGAAAAUCCAUUUUCCUGAUUUUUCUACCAGAGACAUACACCGGAAUUAUGUUGAUUGUGUGCGAUGGUUAGGCGAUUUGAUACUUUCUAAGAGUGGC` is reported as 0.218 ratio.
`GAGAUGAGGGCAAGAGCGAUUAAAGCCCUAAUGAAAGCUGGUGAUAUAAAAAAGCCAGCCCCGGUAUUUAACUUGAUUUUGAAUUUUAGGUAUGUUUGAACAAAGCCACAUCAUUUAAUU` gave a bound/input enrichment of 0.375 ratio.
`CAGUUGAAGACAGAGAAGGAUGAAAAGGAACUUUAUAAGGUACAUUUGAAGAAUACAGAAACCGAAAAUACCAAGCUUAUGUCAGAGGUCCAGACUUUAAAAAAUUUAGAUGGGAACAAA` has a bound/input enrichment of 0.78 ratio.
